Measured values from different studies.
A part holds a random share of what one study measured.

Block 1 — method: universal PBM; form: double-stranded DNA, one strand shown; matrix: in vitro; tested at: not given; direction: higher = stronger binding; endpoint: E-score
Target: Sal-like protein 4, full length isoform B (SALL4, Homo sapiens, UniProt Q9UJQ4-2, residues 1-616)
Setting: 8-mer, flanks averaged, mean of replicates
Target sequence (chain): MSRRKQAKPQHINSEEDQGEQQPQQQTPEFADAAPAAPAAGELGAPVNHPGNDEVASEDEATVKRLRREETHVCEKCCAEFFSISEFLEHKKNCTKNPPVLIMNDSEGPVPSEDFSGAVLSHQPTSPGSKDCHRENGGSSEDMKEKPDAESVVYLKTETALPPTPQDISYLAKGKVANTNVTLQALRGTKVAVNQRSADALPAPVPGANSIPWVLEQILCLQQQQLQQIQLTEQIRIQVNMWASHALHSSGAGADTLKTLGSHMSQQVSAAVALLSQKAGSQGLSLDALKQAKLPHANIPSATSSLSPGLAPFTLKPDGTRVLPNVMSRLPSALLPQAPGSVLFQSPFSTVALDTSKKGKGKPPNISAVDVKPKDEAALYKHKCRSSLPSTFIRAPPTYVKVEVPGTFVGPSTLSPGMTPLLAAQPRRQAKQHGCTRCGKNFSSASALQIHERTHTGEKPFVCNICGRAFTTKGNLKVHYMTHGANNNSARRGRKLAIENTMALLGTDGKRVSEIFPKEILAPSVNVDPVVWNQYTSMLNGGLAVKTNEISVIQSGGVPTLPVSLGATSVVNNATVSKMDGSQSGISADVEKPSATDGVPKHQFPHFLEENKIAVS
Oligonucleotide = CAAATTAG; result = 0.164
Oligonucleotide = TAGGCTCA; result = -0.0534
Oligonucleotide = GACTTGTA; result = 0.173
Oligonucleotide = AACACAGC; result = 0.0629
Oligonucleotide = GCATCGGA; result = -0.136
Oligonucleotide = CACGTAGG; result = -0.0654
Oligonucleotide = CAAACCAC; result = -0.0152
Oligonucleotide = GATCGACC; result = -0.354
Oligonucleotide = GGGACCAC; result = -0.252
Oligonucleotide = GTGCCAGA; result = -0.168
Oligonucleotide = AGGGTGCG; result = -0.202
Oligonucleotide = AAACATGT; result = 0.248
Oligonucleotide = ATGTGAGG; result = 0.0732
Oligonucleotide = ACCTGGAG; result = -0.081
Oligonucleotide = AGACGCGG; result = -0.18
Oligonucleotide = CGAGTGCA; result = -0.0259
Oligonucleotide = AGCGATAG; result = -0.141
Oligonucleotide = ACTTGCAA; result = 0.228
Oligonucleotide = CAATAGAG; result = 0.112
Oligonucleotide = AAGGGTGG; result = -0.0641
Oligonucleotide = ATTCCTTC; result = 0.0612
Oligonucleotide = ATTTTTAG; result = 0.159
Oligonucleotide = ACCCTCAT; result = -0.0571
Oligonucleotide = ACCATACT; result = 0.141
Oligonucleotide = GTGGACGA; result = -0.172

Block 2 — method: protein-binding microarray; form: double-stranded DNA, one strand shown; matrix: in vitro; tested at: not given; direction: higher = stronger binding; endpoint: E-score
Target: Max dimerization protein 1, bHLH-zipper, MAX partner unstated (MXD1, Homo sapiens, UniProt Q05195, residues 56-136)
Setting: k-mer, scored over probes, only values ≥0.25
Construct (chain): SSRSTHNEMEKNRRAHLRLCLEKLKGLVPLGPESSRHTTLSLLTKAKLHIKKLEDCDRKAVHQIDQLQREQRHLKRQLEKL
Oligonucleotide = AGCAATGC; result = 0.255
Oligonucleotide = GCGTGCCA; result = 0.312
Oligonucleotide = CACGCTTC; result = 0.336
Oligonucleotide = GCACATGA; result = 0.433
Oligonucleotide = ATAATGTG; result = 0.271
Oligonucleotide = GCGTGCCC; result = 0.346
Oligonucleotide = CGCCCCGC; result = 0.257
Oligonucleotide = AGCACGCA; result = 0.285
Oligonucleotide = CATGCGAA; result = 0.279
Oligonucleotide = CCCCCCCC; result = 0.357
Oligonucleotide = AACGTGAT; result = 0.389
Oligonucleotide = CCTGCACG; result = 0.332
Oligonucleotide = GACATGCC; result = 0.389
Oligonucleotide = ACGCGACT; result = 0.324
Oligonucleotide = ATATCACG; result = 0.287
Oligonucleotide = CCATGCGG; result = 0.404
Oligonucleotide = ACATGGTG; result = 0.32
Oligonucleotide = CATGGTGC; result = 0.358
Oligonucleotide = CCTCGTGC; result = 0.441
Oligonucleotide = ACATATGT; result = 0.305
Oligonucleotide = ATGTGCCA; result = 0.292

Block 3 — method: RNA Bind-n-Seq; form: RNA; matrix: in vitro; tested at: 200 nM; setting: whole 134-nt RNA, ends assumed; together with: 150 mM LiCl; reference: input library; direction: higher = stronger binding; endpoint: log2 enrichment; library: 7-deaza-guanosine replaces G
Target: Fragile X messenger ribonucleoprotein 1, C-terminal low-complexity region (Fmr1, Mus musculus, UniProt P35922)
Shared flanks, not repeated: GGGAGUUCUACAGUCCGACGAUC … UGGAAUUCUCGGGUGUCAAGG
Oligonucleotide = UUCCCUCUGUUUUAUUUUUCCCCCGUGUGUCCCUACUAUGGUCAGAAAGCCUGUUGUGUCCACCAUCUCCAAAGGAGGUUACCUGCAGGG; result = 1.6
Oligonucleotide = UGUGGACGACAAUGAGGAGACCAUCAAAAAGCGGCUGGAGACCUAUUACAAGGCCACAGAACCUGUCAUCGCCUUCUAUGAGAAACGUGG; result = -0.44
Oligonucleotide = GCAGGAAGUAAAAACAAAUGGAAAUGCUUCGGAUAGUGGCAGGGGUGGGGGUUGCUAAGGAAAGGGUGGGAUGGGAAAGGGUAAAGAGUU; result = 1.7
Oligonucleotide = UGCUAGGCAAUGGAUCACUUGGAGUCCUUUAUUGCUGAAUGUGAUCGGAGAACUGAGCUCGCCAAGAAGCGGCUGGCAGAAACACAGGAG; result = -1.24
Oligonucleotide = GUCCUGUGCUACACAUCGUAUGUACCGAAUCGGGGUUUGGGGUGGGGUUUUUUUGGGGAAAGUAUUAUGUUACGCCGUUCGGAUCUGCAC; result = 0.194
Oligonucleotide = ACCAUGCAGGUGGGCAUCUUUGGGAAGUGGGGCAAGGGGGGGAUAGGGAGGGGGGUAACACUUUGGGAACAGGUAAACCCAGGUCGUUUC; result = 1.52
Oligonucleotide = CAAGUCCUGUGCUACACAUCGUAUGUACCGAAUCGGGUGGGUUUGGGUUUUUGGGAAAGUAUUAUGUUACGCCGUUCGGAUCUGCACUUC; result = -0.689
Oligonucleotide = GUCCUGUGCUACACAUCGUAUGUACCGAAUCGGGGAGGGGUUUUUGGGGAAAAAGGGGAAAGUAUUAUGUUACGCCGUUCGGAUCUGCAC; result = 0.243
Oligonucleotide = UAACUUUAGAGAAGGAUCUGAUGGAUAUGGCAGUGGACGUGGAUUUGGGGAUGGCUAUAAUGGGUAUGGAGGAGGACCUGGAGGUGGCAA; result = 0.058
Oligonucleotide = UAACUUUAGAGGAGGAUCUGAUGGAUAUGGCAGUGGACGUGGAUUUGGGGAUGGCUAUAAUGGGUAUGGAGGAGGACCUGGAGGUUGCAA; result = 0.381
Oligonucleotide = CAAACUUAAAGUCUCCCUUGCUCGGAAGAAGCCUCCAAUGAACAGUAUGCGGGGUGGUCUGCCACCCCGUGAGGGCAGAGGCAUGCCACC; result = 1.83

Block 4 — method: protein-binding microarray; form: double-stranded DNA, one strand shown; matrix: in vitro; tested at: 2200 nM top; setting: 60-bp whole probe; together with: salmon DNA 0.4 mg/ml; reference: random background probes; direction: higher = stronger binding; endpoint: fitted relative affinity; shared flanks, not repeated: GCCTAGCAC … GTCTTGATTCGCTTGACGCTGCTG
Target: Interferon regulatory factor 7, full length, phosphomimetic (IRF7, Homo sapiens, UniProt Q92985, residues 1-503, S471D/S472D/S475D/S476D/S477D/S483D/S484D/S487D)
UniProt Q92985, sequence (whole entry, unmodified, looked up): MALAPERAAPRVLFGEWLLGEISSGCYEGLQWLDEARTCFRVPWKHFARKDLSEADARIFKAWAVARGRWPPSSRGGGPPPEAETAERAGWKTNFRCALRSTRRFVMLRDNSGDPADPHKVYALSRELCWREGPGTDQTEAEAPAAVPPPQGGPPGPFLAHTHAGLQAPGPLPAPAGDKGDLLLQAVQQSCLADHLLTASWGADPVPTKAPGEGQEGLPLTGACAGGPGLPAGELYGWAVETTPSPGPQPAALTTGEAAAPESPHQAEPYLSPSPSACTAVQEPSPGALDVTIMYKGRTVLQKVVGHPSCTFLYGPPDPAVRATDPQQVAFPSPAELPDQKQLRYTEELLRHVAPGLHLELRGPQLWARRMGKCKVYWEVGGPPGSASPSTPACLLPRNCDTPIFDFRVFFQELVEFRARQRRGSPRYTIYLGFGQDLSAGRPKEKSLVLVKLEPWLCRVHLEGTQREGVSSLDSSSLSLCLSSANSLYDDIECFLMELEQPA
Oligonucleotide = TTAGGTATCGGGATTCGGTTAGTGCTA; result = 0.838 z-score
Oligonucleotide = TTAGGTTTCGCCACTGGGTTAGTGCTA; result = 1.69 z-score
Oligonucleotide = TGGGTCTTGGTTCTCAGCTTGTGCTAG; result = 0.272 z-score
Oligonucleotide = TTAGGTATAGGGTTTCGGTTAGTGCTA; result = 2.57 z-score
Oligonucleotide = GACGCTTTCGGGTTTCGAGACGTGCTA; result = 10.4 z-score
Oligonucleotide = TTAGCTATCGGTATCGGTTAGTGCTAG; result = 0.813 z-score
Oligonucleotide = GACGGTCTCCGACTGGGGACGTGCTAG; result = -0.753 z-score
Oligonucleotide = GAGGGTTTCGGGACTGGGGACGTGCTA; result = 1.47 z-score
Oligonucleotide = TTAGGTTTAGGTTTCGGTTAGTGCTAG; result = 5.95 z-score
Oligonucleotide = TTAGGTCTCGGACTGGGTTGGTGCTAG; result = -0.341 z-score
Oligonucleotide = GTAAACCATCCAAATGTTATGTGCTAG; result = 0.465 z-score
Oligonucleotide = GAAGTTCTAAATATCTTTGTGTGCTAG; result = -0.676 z-score
Oligonucleotide = GACGATATCAGTATAGAGACGTGCTAG; result = 0.00768 z-score
Oligonucleotide = TCAAAGCTTCCTCTCTGACTGTGCTAG; result = 0.743 z-score
Oligonucleotide = TTAGGTATCGGGTTTCGGATAGTGCTA; result = 2.14 z-score
Oligonucleotide = TTAGATTTTAGTTTCGATTAGTGCTAG; result = 6.97 z-score
Oligonucleotide = TTAGGTATCCTACTGCTTTCGTGCTAG; result = 1.9 z-score
Oligonucleotide = GACGATATCAGTTTCGGGACGTGCTAG; result = 4.28 z-score
Oligonucleotide = GACGGACTGCAACTGCTGACGTGCTAG; result = -0.335 z-score
Oligonucleotide = GACGATATCAGTCTCGACACGTGCTAG; result = 0.345 z-score
Oligonucleotide = TTCAGTTTCTCTTTCCTTCTGTGCTAG; result = 7.83 z-score
Oligonucleotide = GACGGTATCCTTTCCCTGACGTGCTAG; result = 1.38 z-score
Oligonucleotide = TTAGGTATCCTTATCCTTCAGTGCTAG; result = 0.896 z-score
Oligonucleotide = GACGGTTTCGACTATCGGGATGTGCTA; result = 3.45 z-score
Oligonucleotide = TCAGGACTGCTTTTCCTTTAGTGCTAG; result = 1.9 z-score

Block 5 — method: protein binding microarray; form: double-stranded DNA, one strand shown; matrix: in vitro; tested at: not given; reference: not given; direction: higher = stronger binding; endpoint: E-score
Target: Histone acetyltransferase KAT6A, both winged helices, GST fusion (KAT6A, Homo sapiens, UniProt Q92794, residues 1-181)
Setting: 8-mer, flanks averaged, mean of 2 arrays, mostly near background
Target sequence (chain): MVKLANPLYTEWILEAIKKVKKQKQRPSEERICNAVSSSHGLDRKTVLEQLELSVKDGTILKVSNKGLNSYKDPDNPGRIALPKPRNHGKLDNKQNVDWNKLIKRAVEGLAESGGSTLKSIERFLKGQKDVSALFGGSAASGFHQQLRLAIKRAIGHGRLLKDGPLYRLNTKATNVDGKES
Oligonucleotide = TAGTCTCA; result = -0.12
Oligonucleotide = CGGCCGTA; result = 0.344
Oligonucleotide = ACACAATC; result = -0.0117
Oligonucleotide = AGGAATGG; result = -0.257
Oligonucleotide = CCGGATCC; result = 0.107
Oligonucleotide = CGTTTGAC; result = 0.166
Oligonucleotide = CGTCGCAG; result = 0.256
Oligonucleotide = AAGCACTA; result = -0.188
Oligonucleotide = CCCCAAAC; result = -0.13
Oligonucleotide = AGAAATCA; result = -0.155
Oligonucleotide = AGTGTGAT; result = -0.12
Oligonucleotide = CCTTAGTC; result = -0.139
Oligonucleotide = ATATTGTC; result = -0.0111
Oligonucleotide = ACCGCATC; result = 0.202
Oligonucleotide = AAGCCTAG; result = 0.0101
Oligonucleotide = ATCGTGTC; result = 0.217
Oligonucleotide = AGTATGCA; result = -0.168
Oligonucleotide = CGCCTTGC; result = 0.0644
Oligonucleotide = GAGCGCTC; result = 0.342
Oligonucleotide = ACACTAAA; result = -0.0323
Oligonucleotide = AGAGAACT; result = -0.0325
Oligonucleotide = GAGCCGAA; result = 0.00749
Oligonucleotide = AGTATAAA; result = 0.0743
Oligonucleotide = CCCAAATA; result = -0.258

Some of these lines once more (block 2):
Oligonucleotide = AGCACGCA; result = 0.285
Oligonucleotide = CATGCGAA; result = 0.279
Oligonucleotide = CCCCCCCC; result = 0.357
Oligonucleotide = AACGTGAT; result = 0.389
Oligonucleotide = CCTGCACG; result = 0.332
Oligonucleotide = GACATGCC; result = 0.389
Oligonucleotide = ACGCGACT; result = 0.324
Oligonucleotide = ATATCACG; result = 0.287
Oligonucleotide = CCATGCGG; result = 0.404
Oligonucleotide = ACATGGTG; result = 0.32
